Experimental data gathered from unrelated publications.
Each line is one published result; not all experiments were run side by side. Numbers after ± are the reported error.

Compound | target or system | test | system | setting | measurement | value
N#Cc1ccc(-c2cc(=O)c3ccc4[nH]c(C(F)(F)F)nc4c3o2)cc1 | – | – | 5xFAD mice, 2 months old, brain | oral gavage, 10 mg/kg | Tmax | 0.5 h
Cc1ccc(OCC(=O)O)cc1 | – | – | Sprague-Dawley rat, male, plasma | oral gavage, 10 mg/kg of parent drug | Tmax | 0.63 h
[2H]C([2H])([2H])NC(=O)c1ccc(N2C(=S)N(c3ccc(C#N)c(C(F)(F)F)c3)C(=O)C2(C)C)cc1F | – | – | male human, plasma | oral, 40 mg, single dose, fasted | Tmax | 1 h
C=CC(=O)Nc1cc(Nc2nccc(-c3cn(C)c4ccccc34)n2)c(OCC(F)(F)F)nc1N(C)CCN(C)C | Cytochrome P450 2C19 (CYP2C19, Homo sapiens, UniProt P33261) | enzyme activity, inhibitor | human, liver microsomes | 10 µM | activity vs control | 104%
CC=C1C(OC2OC(CO)C(O)C(O)C2O)OC=C(C(=O)OC)C1CC(=O)OCC1OC(OCCc2ccc(O)cc2)C(O)C(O)C1O (stereo not shown) | – | – | pseudo-germfree mice, plasma | oral, 109.2 mg/kg | Tmax | 0.2 h
COc1cc(CNC(=O)C[C@H](C)CCC=C(C)C)ccc1OCc1cn(-c2ccc([N+](=O)[O-])cc2)nn1 | NCI-H322M | SRB | – | 10 µM, 48 h | growth percent | 92.3%
CCCC[C@H](NC(=O)CCCCCCCNC(=O)CN1CCN(CC(=O)O)CCN(CC(=O)O)CC1)C(=O)N[C@H]1CC(=O)NCCCC[C@@H](C(N)=O)NC(=O)[C@H](Cc2c[nH]c3ccccc23)NC(=O)[C@H](CCCNC(=N)N)NC(=O)[C@@H](Cc2ccccc2)NC(=O)[C@H](Cc2c[nH]cn2)NC1=O [copper-64 labelled] | – | – | C57 mice, intestine | intravenous, 0.37 MBq, 2 h | tissue uptake | 3.78 ± 0.51 %ID
COC(=O)c1cnc(-c2cnccn2)cc1C(=O)OC.COC(=O)c1cnc(-c2cnccn2)cc1C(=O)OC.O.O.O.O=S(=O)([O-])C(F)(F)F.O=S(=O)([O-])C(F)(F)F.[Cu+2] | calf thymus DNA | ethidium bromide displacement | – | – | fluorescence quenching | 5.4%
CC(C)(O)c1ncc([S@](N)(=O)=NC(=O)Nc2c3c(cc4c2CCC4)CCC3)s1 | – | – | human, plasma | oral, 10 mg, single dose, fasted, healthy volunteers | Tmax | 1 h
N#Cc1cnc2cc(OCC3CCNCC3)c(F)cc2c1Nc1cc(F)c(OCc2cccc(Cl)n2)cc1Cl | – | – | male beagle dog, plasma | oral, 5 mg/kg | Tmax | 0.67 h
O=C([O-])CN1CCN(CC(=O)[O-])CCN(CC(=O)NCCc2ccc3c(c2)C2C=CCC2C(c2cc4c(cc2Br)OCO4)N3)CCN(CC(=O)[O-])CC1.[111In+3] (stereo not shown) | Hec50 tumour model | – | host not given, blood | 2 h, tumour-bearing | tracer uptake | 1.21 %ID/g
[64Cu+2].c1cnc(CNCc2ccc(CN3CCCN4CCNCCCN(CC4)CC3)cc2)nc1 | CXCR4 | – | NOD/SCID mouse, U87 and U87-stb-CXCR4 xenografts, spleen | iv, 120 min, ex vivo | tissue uptake | 15.8 ± 4.04 %ID/g
N=C(N)NCCC[C@@H]1NC(=O)[C@H](Cc2c[nH]c3ccccc23)NC(=O)[C@@H](CC2CCCCC2)NC(=O)[C@@H]2CCCN2C(=O)[C@@H](NC(=O)CCc2ccccc2)CCCNC1=O | – | – | C57BL/6J mice, spinal cord | subcutaneous, 1 mg/kg | Tmax | 0.765 h
COc1cc(C)c(Cc2ccc(O)cc2)cc1[C@@H]1S[C@H](CO)[C@@H](O)[C@H](O)[C@H]1O | – | – | Japanese T2DM patients, plasma | 5 mg luseogliflozin, day 1, once daily | Tmax | 5.86 ± 3.08 h
O=C(CCc1ccc(CNC(C(=O)O)C2CCCCC2)cn1)NO (stereo not shown) | – | – | human, plasma | oral, 20 mg, multiple doses, once daily, patients | Tmax | 1.12 h
O=C([O][Ti+2][O]C(=O)c1ccc(P(c2ccccc2)c2ccccc2)cc1)c1ccc(P(c2ccccc2)c2ccccc2)cc1.[Cl][Au].[Cl][Au].c1cc[cH-]c1.c1cc[cH-]c1 | – | ICP-MS, measured: gold | NOD.CB17-Prkdc scid/J mice, blood or plasma | 7.5 mg/kg, after first injection | Tmax | 2.2 h
NS(=O)(=O)c1ccc(N2N=C(C(F)(F)F)CC2c2ccc(F)cc2F)cc1 (stereo not shown) | – | – | beagle dog, plasma | oral, 1 mg/kg, single dose | Tmax | 6 h
[64Cu+2].c1ccc(CNCc2ccc(CN3CCCN4CCNCCCN(CC4)CC3)cc2)nc1 | CXCR4 | – | NOD/SCID mouse, U87 and U87-stb-CXCR4 xenografts, kidney | iv, 90 min, no blocking dose, ex vivo | tissue uptake | 19.1 ± 1.67 %ID/g
O=C(CCc1ccc(CNC(C(=O)OC2CCCC2)C2CCCCC2)cn1)NO (stereo not shown) | – | – | human, plasma | oral, 40 mg, multiple doses, once daily, patients | Tmax | 0.625 h
COc1cc(CNC(=O)C[C@H](C)CCC=C(C)C)ccc1OCc1cn(-c2ccccc2[N+](=O)[O-])nn1 | KM12 | SRB | – | 10 µM, 48 h | growth percent | 63.9%
Cn1c(=O)oc2ccc(-c3ccc(CC(C#N)NC(=O)C4CNCCCO4)c(F)c3)cc21 (stereo not shown) | – | measured: skin exfoliation | human | 15 mg single dose, fasted | subjects with TEAE | 0%
CC(C)(C)N/C=C(/c1ccccc1)S(=O)(=O)O | – | – | female Swiss Webster mice, plasma | intravenous, 15 mg/kg | Tmax | 1 h
CN1CCC[C@]1(C)/C=C/S(=O)(=O)NC(=O)Nc1c2c(cc3c1CCC3)CCC2 | – | – | human, plasma | oral, 250 mg, single dose | Tmax | 1 h
CC(C)C[C@@H](NC(=O)[C@H](NC(=O)[C@H]1CCCN1)[C@H](C)O)C(=O)N[C@H](Cc1c[nH]cn1)C(=O)N[C@@H](C(=O)N[C@H](Cc1c[nH]cn1)C(=O)N[C@H](CC(N)=O)C(=O)N[C@H](CCCNC(=N)N)C(=O)N[C@H](CCCNC(=N)N)C(=O)N[C@H](CCCNC(=N)N)C(=O)N[C@H](CCCNC(=N)N)C(=O)N[C@H](CCCNC(=N)N)C(N)=O)[C@H](C)O | – | – | beagle dog, plasma | oral, 20 mg/kg, single dose | Tmax | 2 h
CC(C)(Sc1cc[n+]([O-])cc1-c1ccc(C#N)c2ccccc12)C(=O)OC1OC(C(=O)O)C(O)C(O)C1O (stereo not shown) | – | – | plasma | oral, 15 mg, severe renal impairment, fasted | Tmax | 3 h
CN(C)CCNC(=O)/C=C/C(Cc1ccccc1)Nc1ccnc2cc(Cl)ccc12 (stereo not shown) | – | – | ICR mice, healthy, plasma | oral, 5 mg/kg | Tmax | 1 h
CC12CC(c3ccc(S(C)(=O)=O)cc3)C3=C4CCC(=O)C=C4CCC3C1CCC2(O)C(F)(F)C(F)(F)F (stereo not shown) | – | – | human, plasma | oral, 5 mg, single dose, fasted | Tmax | 1 to 2 h
CC(=O)N[C@H](CC(=O)O)C(=O)N[C@H](Cc1c[nH]c2ccccc12)C(=O)N[C@H](Cc1ccccc1)C(=O)N[C@H](CCCCN)C(=O)N[C@H](C)C(=O)N[C@H](Cc1ccccc1)C(=O)N[C@H](Cc1ccc(O)cc1)C(=O)N[C@H](CC(=O)O)C(=O)N[C@H](CCCCN)C(=O)N[C@@H](C(=O)N[C@H](C)C(=O)N[C@H](CCC(=O)O)C(=O)N[C@H](CCCCN)C(=O)N[C@H](Cc1ccccc1)C(=O)N[C@H](CCCCN)C(=O)N[C@H](CCC(=O)O)C(=O)N[C@H](C)C(=O)N[C@H](Cc1ccccc1)C(N)=O)C(C)C | – | – | statin-treated high-risk CHD patients, plasma | oral, 13 daily doses, censored population | Tmax | 1.3 to 2.4 h

Excerpt of the above:
Compound | target or system | test | system | setting | measurement | value
COc1cc(CNC(=O)C[C@H](C)CCC=C(C)C)ccc1OCc1cn(-c2ccc([N+](=O)[O-])cc2)nn1 | NCI-H322M | SRB | – | 10 µM, 48 h | growth percent | 92.3%
CCCC[C@H](NC(=O)CCCCCCCNC(=O)CN1CCN(CC(=O)O)CCN(CC(=O)O)CC1)C(=O)N[C@H]1CC(=O)NCCCC[C@@H](C(N)=O)NC(=O)[C@H](Cc2c[nH]c3ccccc23)NC(=O)[C@H](CCCNC(=N)N)NC(=O)[C@@H](Cc2ccccc2)NC(=O)[C@H](Cc2c[nH]cn2)NC1=O [copper-64 labelled] | – | – | C57 mice, intestine | intravenous, 0.37 MBq, 2 h | tissue uptake | 3.78 ± 0.51 %ID
